Measured values of several laboratories.
Compare with care: the assays were run in different laboratories. ± marks the error that the study gave.

Structure (SMILES) | tested on | assay | test system | conditions | scale | endpoint | value
CCCCCCCCCCCCCCCCCC(=O)N[C@@H](CCC(=O)NCCCC[C@H](NC(=O)[C@H](CCC(N)=O)NC(=O)[C@H](CCCCN)NC(=O)[C@H](CO)NC(=O)[C@H](CC(C)C)NC(=O)[C@H](CC(=O)O)NC(=O)[C@H](CO)NC(=O)[C@@H](NC(=O)[C@H](Cc1ccccc1)NC(=O)[C@@H](NC(=O)CNC(=O)[C@H](CCC(N)=O)NC(=O)[C@@H](CO)NC(=O)[C@@H](N)Cc1c[nH]cn1)[C@@H](C)O)[C@@H](C)O)C(=O)N[C@@H](CC(=O)O)C(=O)N[C@@H](CCC(=O)O)C(=O)N[C@@H](CCC(N)=O)C(=O)N[C@@H](CC(C)C)C(=O)N[C@@H](C)C(=O)N[C@@H](CCCCN)C(=O)N[C@@H](CC(=O)O)C(=O)N[C@@H](Cc1ccccc1)C(=O)N[C@H](C(=O)N[C@@H](CCC(=O)O)C(=O)N[C@@H](Cc1c[nH]c2ccccc12)C(=O)N[C@@H](CC(C)C)C(=O)N[C@@H](CCCCN)C(=O)N[C@@H](C)C(=O)NCC(=O)NCC(=O)N1CCC[C@H]1C(=O)N[C@@H](CO)C(=O)N[C@@H](CO)C(=O)NCC(=O)N[C@@H](C)C(=O)N1CCC[C@H]1C(=O)N1CCC[C@H]1C(=O)N1CCC[C@H]1C(=O)N[C@@H](CO)C(N)=O)[C@@H](C)CC)C(=O)O |  |  | obese diabetic cynomolgus monkey, serum | dose not given, day 43 |  | AST | 29.7 ± 3.6 U/L
CC[C@H](C)[C@H](NC(=O)[C@H](CO)NC(=O)[C@H](Cc1ccc(O)cc1)NC(=O)[C@H](CC(=O)O)NC(=O)[C@H](CO)NC(=O)[C@@H](NC(=O)[C@H](Cc1ccccc1)NC(=O)[C@@H](NC(=O)CNC(=O)[C@H](CCC(=O)O)NC(=O)[C@@H](C)NC(=O)[C@@H](N)Cc1ccc(O)cc1)[C@@H](C)O)[C@@H](C)CC)C(=O)N[C@@H](C)C(=O)N[C@@H](CCSC)C(=O)N[C@@H](CC(=O)O)C(=O)N[C@@H](CCCCN)C(=O)N[C@H](C(=O)N[C@@H](Cc1c[nH]cn1)C(=O)N[C@@H](CCC(N)=O)C(=O)N[C@@H](CCC(N)=O)C(=O)N[C@@H](CC(=O)O)C(=O)N[C@@H](Cc1ccccc1)C(=O)N[C@H](C(=O)N[C@@H](CC(N)=O)C(=O)N[C@@H](Cc1c[nH]c2ccccc12)C(=O)N[C@@H](CC(C)C)C(=O)N[C@@H](CC(C)C)C(=O)N[C@@H](C)C(=O)N[C@@H](CCC(N)=O)C(=O)N[C@@H](CCCCN)C(=O)N1CCC[C@H]1C(=O)N[C@@H](CO)C(=O)N[C@@H](CO)C(=O)NCC(=O)N[C@@H](C)C(=O)N1CCC[C@H]1C(=O)N1CCC[C@H]1C(=O)N1CCC[C@H]1C(=O)N[C@@H](CO)C(N)=O)C(C)C)[C@@H](C)CC |  |  | HF-STZ diabetic mouse, plasma | continuous infusion, 100 nmol/kg/day, 4 weeks |  | PAI-1 | 3.1 ± 0.2 ng/mL
CC[C@H](C)[C@H](NC(=O)[C@H](CCCN)NC(=O)[C@H](CC(=O)O)NC(=O)[C@H](CC(C)C)NC(=O)C(C)(CC(C)C)NC(=O)[C@@H](NC(=O)[C@H](CO)NC(=O)[C@H](Cc1ccc(O)cc1)NC(=O)[C@H](CC(=O)O)NC(=O)[C@H](CO)NC(=O)[C@@H](NC(=O)[C@H](Cc1ccccc1)NC(=O)[C@@H](NC(=O)CNC(=O)[C@H](CCC(=O)O)NC(=O)C(C)(C)NC(=O)[C@@H](N)Cc1ccc(O)cc1)[C@@H](C)O)[C@@H](C)CC)[C@@H](C)CC)C(=O)N[C@@H](Cc1c[nH]cn1)C(=O)N[C@@H](CCC(N)=O)C(=O)NC(C)(C)C(=O)N[C@@H](CC(=O)O)C(=O)N[C@@H](Cc1ccccc1)C(=O)N[C@H](C(=O)N[C@@H](CCC(=O)O)C(=O)N[C@@H](Cc1ccc(O)cc1)C(=O)N[C@@H](CCCCNC(=O)COCCOCCNC(=O)COCCOCCNC(=O)CC[C@H](NC(=O)CCCCCCCCCCCCCCCCCCC(=O)O)C(=O)O)C(=O)N[C@@H](CC(C)C)C(=O)N[C@@H](CCC(=O)O)C(=O)NCC(=O)NCC(=O)N1CCC[C@H]1C(=O)N[C@@H](CO)C(=O)N[C@@H](CO)C(=O)NCC(=O)N[C@@H](C)C(=O)N1CCC[C@H]1C(=O)N1CCC[C@H]1C(=O)N1CCC[C@H]1C(=O)N[C@@H](CO)C(N)=O)C(C)C (stereo partly drawn) |  |  | human, plasma | subcutaneous, 25 mg, single dose, healthy volunteers |  | Vd/F | 8.11 L
CC[C@H](C)[C@H](NC(=O)CNC(=O)[C@H](C)NC(=O)[C@H](CCC(=O)O)NC(=O)[C@@H]1CCCN1C(=O)[C@H](CC(=O)O)NC(=O)[C@H](C)NC(=O)[C@H](CCC(=O)O)NC(=O)[C@H](C)NC(=O)[C@@H](N)CC(=O)O)C(=O)NCC(=O)N[C@@H](C)C(=O)N[C@H](C(=O)N[C@@H](CC(C)C)C(=O)N[C@@H](CCCCN)C(=O)N[C@H](C(=O)N[C@@H](CC(C)C)C(=O)N[C@H](C(=O)N[C@H](C(=O)NCC(=O)N[C@@H](CC(C)C)C(=O)N1CCC[C@H]1C(=O)N[C@@H](C)C(=O)N[C@@H](CC(C)C)C(=O)N[C@H](C(=O)N[C@@H](CO)C(=O)N[C@@H](Cc1c[nH]c2ccccc12)C(=O)N[C@H](C(=O)N[C@@H](CCCCN)C(=O)N[C@@H](CCCNC(=N)N)C(=O)N[C@@H](CCCCN)C(=O)N[C@@H](CCCNC(=N)N)C(=O)N[C@@H](CCC(N)=O)C(=O)N[C@@H](CCC(N)=O)C(N)=O)[C@@H](C)CC)[C@@H](C)CC)[C@@H](C)O)[C@@H](C)O)C(C)C)C(C)C | human erythrocytes, washed |  |  | 1 h, 37 °C, 2% v/v RBC suspension |  | HD50 | 22.3 ± 1.1 µmol/L
CCCCCCCCCCCCCCCC(=O)N[C@@H](CCC(=O)NCCCC[C@H](NC(=O)[C@H](CC(=O)O)NC(=O)[C@H](CO)NC(=O)[C@@H](NC(=O)[C@H](Cc1ccccc1)NC(=O)[C@@H](NC(=O)CNC(=O)[C@H](CCC(N)=O)NC(=O)[C@H](C)NC(=O)[C@@H](Cc1ccc(O)cc1)NC(C)=O)[C@@H](C)O)[C@@H](C)O)C(=O)N[C@@H](CO)C(=O)N[C@@H](CCCCN)C(=O)N[C@@H](Cc1ccc(O)cc1)C(=O)N[C@@H](CC(C)C)C(=O)N[C@@H](CC(=O)O)C(=O)N[C@@H](CCC(=O)O)C(=O)N[C@@H](CCCNC(=N)N)C(=O)N[C@@H](C)C(=O)N[C@@H](C)C(=O)N[C@@H](CCC(N)=O)C(=O)N[C@@H](CC(=O)O)C(=O)N[C@@H](Cc1ccccc1)C(=O)N[C@H](C(=O)N[C@@H](CCC(N)=O)C(=O)N[C@@H](Cc1c[nH]c2ccccc12)C(=O)N[C@@H](CC(C)C)C(=O)N[C@@H](CC(C)C)C(=O)N[C@@H](CCC(=O)O)C(=O)NCC(=O)NCC(=O)N1CCC[C@H]1C(=O)N[C@@H](CO)C(=O)N[C@@H](CO)C(=O)NCC(=O)N[C@@H](C)C(=O)N1CCC[C@H]1C(=O)N1CCC[C@H]1C(=O)N1CCC[C@H]1C(=O)N[C@@H](CO)C(N)=O)C(C)C)C(=O)O |  | 12-lead ECG | human | multiple ascending doses, 10 weeks | reference: baseline | change in heart rate | 7 to 16 beats/min
C[C@@H](O)[C@H](N)C(=O)N[C@H](C(=O)N[C@@H](CC(N)=O)C(=O)N[C@@H](Cc1ccc(O)cc1)C(=O)N[C@H](C(N)=O)[C@@H](C)O)[C@@H](C)O |  | RP-HPLC | 25% human serum in RPMI | 37 °C |  | half-life | 3.5 h
CCCCCCCCCCCCCCCC(=O)N[C@@H](CCC(=O)NCCOCCOCCC(=O)NCCOCCOCCC(=O)NCCCC[C@H](NC(=O)[C@H](CC(=O)O)NC(=O)[C@H](CC(C)C)NC(=O)[C@H](Cc1ccc(O)cc1)NC(=O)[C@H](CCCCN)NC(=O)[C@H](CO)NC(=O)[C@H](Cc1ccc(O)cc1)NC(=O)[C@H](CC(=O)O)NC(=O)[C@H](CO)NC(=O)[C@@H](NC(=O)[C@H](Cc1ccccc1)NC(=O)[C@@H](NC(=O)CNC(=O)[C@H](CCC(N)=O)NC(=O)[C@@H](CO)NC(=O)[C@@H](N)Cc1c[nH]cn1)[C@@H](C)O)[C@@H](C)O)C(=O)N[C@@H](CCCNC(=N)N)C(=O)N[C@@H](CCCNC(=N)N)C(=O)N[C@@H](C)C(=O)N[C@@H](CCC(N)=O)C(=O)N[C@@H](CC(=O)O)C(=O)N[C@@H](Cc1ccccc1)C(=O)N[C@H](C(=O)N[C@@H](CCC(N)=O)C(=O)N[C@@H](Cc1c[nH]c2ccccc12)C(=O)N[C@@H](CC(C)C)C(=O)N[C@@H](CC(C)C)C(=O)N[C@@H](CC(N)=O)C(=O)N[C@H](C(=O)NCC(=O)NCC(=O)N1CCC[C@H]1C(=O)N[C@@H](CO)C(=O)N[C@@H](CO)C(=O)NCC(=O)N[C@@H](C)C(=O)N1CCC[C@H]1C(=O)N1CCC[C@H]1C(=O)N1CCC[C@H]1C(=O)N[C@@H](CO)C(N)=O)[C@@H](C)O)C(C)C)C(=O)O |  |  | rhesus monkey, plasma | subcutaneous, 20 µg/kg, single dose |  | AUC(0-t) | 75.5 ng·h/mL
CC[C@H](C)[C@@H]1NC(=O)[C@H](CCCNC(=N)N)NC(=O)[C@H](CO)NC(=O)[C@H](CCC(=O)O)NC(=O)[C@H](CC(=O)O)NC(=O)CNC(=O)CNC(=O)[C@H]([C@@H](C)O)NC(=O)[C@H](Cc2ccccc2)NC(=O)[C@H](CO)NC(=O)[C@H]([C@@H](C)O)NC(=O)[C@H](C)NC(=O)[C@@H]2CSSC[C@@H](C(=O)N[C@@H](Cc3ccc(O)cc3)C(=O)N[C@@H](Cc3ccccc3)C(=O)N[C@H](C(=O)N[C@H](C(=O)NCC(=O)O)[C@@H](C)O)[C@@H](C)O)NC(=O)[C@H]([C@@H](C)O)NC(=O)[C@H](CSSC[C@H](NC(=O)[C@H](CCC(=O)O)NC(=O)[C@H](CO)NC(=O)[C@H](CCCCN)NC(=O)[C@H](Cc3ccc(O)cc3)NC(=O)[C@@H]3CCCN3C(=O)[C@H](Cc3ccccc3)NC(=O)[C@H](CCCCN)NC(=O)[C@H](CCCNC(=N)N)NC(=O)[C@H](CCCCN)NC(=O)[C@H](CCCCN)NC(=O)[C@H](Cc3ccc(O)cc3)NC(=O)[C@@H]3CCCN3C(=O)[C@@H](NC(=O)[C@H](CC(=O)O)NC(=O)[C@H](CCCCN)NC(=O)[C@H](CCCCN)NC(=O)[C@@H](NC(=O)[C@@H](NC(=O)[C@@H](N)CCC(=O)O)C(C)C)[C@@H](C)CC)[C@@H](C)O)C(=O)N[C@@H](CC(C)C)C(=O)N[C@@H](CCCCN)C(=O)N[C@@H](C)C(=O)N2)NC(=O)[C@H](CCCCN)NC(=O)[C@H](Cc2ccccc2)NC(=O)[C@H](Cc2ccccc2)NC(=O)CNC(=O)[C@@H]2CCCN2C(=O)[C@H](CCCCN)NC(=O)CNC(=O)[C@H](CCC(=O)O)NC(=O)[C@H](CCC(N)=O)NC1=O |  | ELISA | mouse, plasma | intravenous |  | elimination half-life | 4.5 h
CCc1ccccc1NC(=S)N/N=C/c1ccc(O)cc1O | L929 | MTT |  | 25 µM, 24 h |  | viability | 80%

Repeated from above:
Structure (SMILES) | tested on | assay | test system | conditions | scale | endpoint | value
CC[C@H](C)[C@H](NC(=O)[C@H](CCCN)NC(=O)[C@H](CC(=O)O)NC(=O)[C@H](CC(C)C)NC(=O)C(C)(CC(C)C)NC(=O)[C@@H](NC(=O)[C@H](CO)NC(=O)[C@H](Cc1ccc(O)cc1)NC(=O)[C@H](CC(=O)O)NC(=O)[C@H](CO)NC(=O)[C@@H](NC(=O)[C@H](Cc1ccccc1)NC(=O)[C@@H](NC(=O)CNC(=O)[C@H](CCC(=O)O)NC(=O)C(C)(C)NC(=O)[C@@H](N)Cc1ccc(O)cc1)[C@@H](C)O)[C@@H](C)CC)[C@@H](C)CC)C(=O)N[C@@H](Cc1c[nH]cn1)C(=O)N[C@@H](CCC(N)=O)C(=O)NC(C)(C)C(=O)N[C@@H](CC(=O)O)C(=O)N[C@@H](Cc1ccccc1)C(=O)N[C@H](C(=O)N[C@@H](CCC(=O)O)C(=O)N[C@@H](Cc1ccc(O)cc1)C(=O)N[C@@H](CCCCNC(=O)COCCOCCNC(=O)COCCOCCNC(=O)CC[C@H](NC(=O)CCCCCCCCCCCCCCCCCCC(=O)O)C(=O)O)C(=O)N[C@@H](CC(C)C)C(=O)N[C@@H](CCC(=O)O)C(=O)NCC(=O)NCC(=O)N1CCC[C@H]1C(=O)N[C@@H](CO)C(=O)N[C@@H](CO)C(=O)NCC(=O)N[C@@H](C)C(=O)N1CCC[C@H]1C(=O)N1CCC[C@H]1C(=O)N1CCC[C@H]1C(=O)N[C@@H](CO)C(N)=O)C(C)C (stereo partly drawn) |  |  | human, plasma | subcutaneous, 25 mg, single dose, healthy volunteers |  | Vd/F | 8.11 L
